Results pooled from the literature.
Every numbered part comes from another study and shows a few of its results, in no order.
Chain of UniProt P68400 (whole entry, looked up): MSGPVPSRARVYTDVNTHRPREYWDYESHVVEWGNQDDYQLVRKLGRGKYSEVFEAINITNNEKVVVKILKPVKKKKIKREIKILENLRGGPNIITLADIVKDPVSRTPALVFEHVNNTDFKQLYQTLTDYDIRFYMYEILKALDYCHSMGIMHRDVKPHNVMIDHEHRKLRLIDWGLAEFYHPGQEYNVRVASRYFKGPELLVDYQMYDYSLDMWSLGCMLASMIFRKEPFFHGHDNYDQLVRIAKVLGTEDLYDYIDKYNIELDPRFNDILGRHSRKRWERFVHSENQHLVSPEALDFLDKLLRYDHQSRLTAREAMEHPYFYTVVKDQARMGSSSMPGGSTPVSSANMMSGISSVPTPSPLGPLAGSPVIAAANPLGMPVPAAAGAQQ
Chain of UniProt P53778 (whole entry, looked up): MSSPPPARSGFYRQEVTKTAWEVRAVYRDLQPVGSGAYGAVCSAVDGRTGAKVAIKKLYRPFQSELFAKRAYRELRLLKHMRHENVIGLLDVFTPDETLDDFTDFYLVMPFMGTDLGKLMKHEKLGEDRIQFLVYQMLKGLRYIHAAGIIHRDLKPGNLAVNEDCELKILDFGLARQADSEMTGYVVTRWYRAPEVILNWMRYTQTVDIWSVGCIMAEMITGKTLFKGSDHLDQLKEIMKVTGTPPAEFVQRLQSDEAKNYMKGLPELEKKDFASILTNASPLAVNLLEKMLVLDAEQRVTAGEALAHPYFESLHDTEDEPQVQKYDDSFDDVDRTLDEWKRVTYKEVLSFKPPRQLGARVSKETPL
Chain of UniProt Q05655 (whole entry, looked up): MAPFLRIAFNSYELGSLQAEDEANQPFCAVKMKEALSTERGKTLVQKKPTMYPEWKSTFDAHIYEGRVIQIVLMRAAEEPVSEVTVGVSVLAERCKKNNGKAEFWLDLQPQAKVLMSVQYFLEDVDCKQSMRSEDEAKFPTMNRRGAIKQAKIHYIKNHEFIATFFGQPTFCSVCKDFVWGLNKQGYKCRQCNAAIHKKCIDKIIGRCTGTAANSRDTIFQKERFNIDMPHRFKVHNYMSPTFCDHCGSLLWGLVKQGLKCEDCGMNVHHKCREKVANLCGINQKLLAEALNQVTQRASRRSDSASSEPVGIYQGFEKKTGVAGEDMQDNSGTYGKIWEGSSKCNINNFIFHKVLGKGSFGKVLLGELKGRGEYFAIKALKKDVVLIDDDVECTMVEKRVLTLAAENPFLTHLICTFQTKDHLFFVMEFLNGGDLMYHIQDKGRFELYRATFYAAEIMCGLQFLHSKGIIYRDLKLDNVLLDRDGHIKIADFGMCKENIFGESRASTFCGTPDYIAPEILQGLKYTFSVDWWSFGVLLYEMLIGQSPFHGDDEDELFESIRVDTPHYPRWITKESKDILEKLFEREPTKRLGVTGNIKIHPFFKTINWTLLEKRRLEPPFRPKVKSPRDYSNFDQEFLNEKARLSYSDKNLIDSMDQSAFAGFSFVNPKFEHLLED
Chain of UniProt P21802 (whole entry, looked up): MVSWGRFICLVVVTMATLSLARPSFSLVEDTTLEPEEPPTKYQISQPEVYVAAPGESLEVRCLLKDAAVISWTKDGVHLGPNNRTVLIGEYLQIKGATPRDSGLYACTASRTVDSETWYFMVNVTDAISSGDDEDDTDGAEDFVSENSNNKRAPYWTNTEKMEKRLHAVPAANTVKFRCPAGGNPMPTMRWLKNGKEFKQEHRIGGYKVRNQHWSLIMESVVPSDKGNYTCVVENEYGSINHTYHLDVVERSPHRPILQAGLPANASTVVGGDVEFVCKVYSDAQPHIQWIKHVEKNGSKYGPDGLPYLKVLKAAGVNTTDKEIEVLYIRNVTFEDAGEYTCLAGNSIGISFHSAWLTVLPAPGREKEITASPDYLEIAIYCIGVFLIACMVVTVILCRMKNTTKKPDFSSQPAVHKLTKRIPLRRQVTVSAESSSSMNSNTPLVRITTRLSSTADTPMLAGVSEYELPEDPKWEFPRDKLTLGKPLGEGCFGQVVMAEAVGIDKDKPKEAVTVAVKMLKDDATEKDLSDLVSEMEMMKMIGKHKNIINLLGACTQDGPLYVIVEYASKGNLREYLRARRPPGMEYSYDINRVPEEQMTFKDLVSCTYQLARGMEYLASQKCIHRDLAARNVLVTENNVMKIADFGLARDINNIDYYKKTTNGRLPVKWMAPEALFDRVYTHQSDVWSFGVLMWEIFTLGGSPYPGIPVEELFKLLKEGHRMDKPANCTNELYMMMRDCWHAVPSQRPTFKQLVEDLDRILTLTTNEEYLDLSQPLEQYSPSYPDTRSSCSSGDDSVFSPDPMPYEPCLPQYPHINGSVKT
Chain of UniProt Q9Y3S1 (whole entry, looked up): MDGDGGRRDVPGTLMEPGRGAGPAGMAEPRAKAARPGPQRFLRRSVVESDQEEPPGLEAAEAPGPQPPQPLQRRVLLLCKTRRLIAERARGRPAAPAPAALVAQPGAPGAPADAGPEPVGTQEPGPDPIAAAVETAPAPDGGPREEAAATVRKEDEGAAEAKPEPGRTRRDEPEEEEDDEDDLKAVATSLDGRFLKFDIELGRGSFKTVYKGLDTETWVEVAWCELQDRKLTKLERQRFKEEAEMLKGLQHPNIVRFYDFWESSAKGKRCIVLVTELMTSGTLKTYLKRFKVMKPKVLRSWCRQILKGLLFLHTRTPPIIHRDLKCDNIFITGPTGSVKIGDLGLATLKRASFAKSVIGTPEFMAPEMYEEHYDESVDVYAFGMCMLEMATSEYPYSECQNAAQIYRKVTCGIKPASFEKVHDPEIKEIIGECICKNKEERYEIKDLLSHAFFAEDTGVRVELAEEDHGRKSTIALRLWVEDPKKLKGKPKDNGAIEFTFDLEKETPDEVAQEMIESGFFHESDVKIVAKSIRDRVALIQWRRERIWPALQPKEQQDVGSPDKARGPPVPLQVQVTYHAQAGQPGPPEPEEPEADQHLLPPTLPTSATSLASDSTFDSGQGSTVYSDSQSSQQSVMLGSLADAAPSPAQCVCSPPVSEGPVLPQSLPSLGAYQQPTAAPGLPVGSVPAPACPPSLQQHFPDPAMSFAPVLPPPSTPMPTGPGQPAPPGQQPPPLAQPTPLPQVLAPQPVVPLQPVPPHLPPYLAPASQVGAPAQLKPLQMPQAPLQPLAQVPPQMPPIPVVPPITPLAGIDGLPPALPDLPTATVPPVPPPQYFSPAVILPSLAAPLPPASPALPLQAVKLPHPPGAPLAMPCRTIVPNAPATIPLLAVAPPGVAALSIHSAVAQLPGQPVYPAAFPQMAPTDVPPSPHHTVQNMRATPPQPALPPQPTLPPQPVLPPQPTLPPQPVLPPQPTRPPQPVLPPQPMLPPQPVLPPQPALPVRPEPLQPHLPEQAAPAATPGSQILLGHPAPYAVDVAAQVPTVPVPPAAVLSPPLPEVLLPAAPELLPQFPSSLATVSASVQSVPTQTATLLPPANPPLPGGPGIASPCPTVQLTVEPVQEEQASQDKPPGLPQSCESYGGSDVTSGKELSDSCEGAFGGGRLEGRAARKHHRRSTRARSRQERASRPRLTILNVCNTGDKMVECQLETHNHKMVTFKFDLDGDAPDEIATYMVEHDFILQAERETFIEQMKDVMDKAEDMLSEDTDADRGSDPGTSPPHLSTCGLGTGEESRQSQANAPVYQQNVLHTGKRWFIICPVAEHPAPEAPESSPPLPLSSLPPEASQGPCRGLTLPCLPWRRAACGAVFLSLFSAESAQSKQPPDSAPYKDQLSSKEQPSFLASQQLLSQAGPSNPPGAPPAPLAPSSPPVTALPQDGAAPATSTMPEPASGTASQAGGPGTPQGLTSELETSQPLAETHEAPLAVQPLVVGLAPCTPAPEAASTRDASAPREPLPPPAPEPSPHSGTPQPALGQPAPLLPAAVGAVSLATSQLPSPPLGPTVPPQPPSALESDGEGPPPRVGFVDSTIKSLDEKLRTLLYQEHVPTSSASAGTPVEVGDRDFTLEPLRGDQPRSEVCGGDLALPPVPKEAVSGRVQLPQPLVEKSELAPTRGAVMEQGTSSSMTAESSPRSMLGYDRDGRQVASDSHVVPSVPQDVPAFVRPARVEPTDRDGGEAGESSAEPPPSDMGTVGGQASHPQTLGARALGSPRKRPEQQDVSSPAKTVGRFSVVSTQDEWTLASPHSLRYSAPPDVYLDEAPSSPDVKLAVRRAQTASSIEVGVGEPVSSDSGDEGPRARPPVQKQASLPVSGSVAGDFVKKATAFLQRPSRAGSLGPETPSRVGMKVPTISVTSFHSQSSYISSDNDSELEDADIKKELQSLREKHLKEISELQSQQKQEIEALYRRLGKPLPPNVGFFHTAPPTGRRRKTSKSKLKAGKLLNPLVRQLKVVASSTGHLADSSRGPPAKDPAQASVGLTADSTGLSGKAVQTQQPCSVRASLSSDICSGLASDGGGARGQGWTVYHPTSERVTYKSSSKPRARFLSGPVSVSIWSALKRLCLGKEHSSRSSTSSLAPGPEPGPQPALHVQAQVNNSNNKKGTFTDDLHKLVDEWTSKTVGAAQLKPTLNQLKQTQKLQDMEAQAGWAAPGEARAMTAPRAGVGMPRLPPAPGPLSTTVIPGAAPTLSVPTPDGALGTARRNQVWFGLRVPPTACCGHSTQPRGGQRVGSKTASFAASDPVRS
Chain of UniProt Q9HBH9 (whole entry, looked up): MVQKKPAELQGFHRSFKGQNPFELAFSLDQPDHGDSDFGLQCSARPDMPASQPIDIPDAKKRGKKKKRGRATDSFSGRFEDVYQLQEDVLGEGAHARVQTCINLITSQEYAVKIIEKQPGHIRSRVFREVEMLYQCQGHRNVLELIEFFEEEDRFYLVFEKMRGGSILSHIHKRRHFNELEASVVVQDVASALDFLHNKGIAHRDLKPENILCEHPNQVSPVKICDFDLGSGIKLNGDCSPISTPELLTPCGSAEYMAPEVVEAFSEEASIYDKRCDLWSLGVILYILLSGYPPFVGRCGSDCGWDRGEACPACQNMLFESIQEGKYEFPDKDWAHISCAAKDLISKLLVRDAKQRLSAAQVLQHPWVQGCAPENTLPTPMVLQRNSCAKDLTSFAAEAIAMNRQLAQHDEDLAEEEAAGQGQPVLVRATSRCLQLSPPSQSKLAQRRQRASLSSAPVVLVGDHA

Set 1 — species: mouse; matrix: microsomes or S9; concentration: 2 µM; time: 0.5 h
For Cc1nc(C2CC2)nc2sc(C(=O)NC3(C#N)CCCC3)c(N)c12, the remaining compound was 6.37%.
CC(C)c1cc(C(C)C)c(S(=O)(=O)NCc2ccc(S(N)(=O)=O)cc2)c(C(C)C)c1 gave a remaining compound of 1.04%.
With COc1ccc([C@@H](C)NC(=O)COc2c(C)ccc(C)c2C)cc1 the remaining compound was 0.73%.
With Cc1nc2cc(=O)[nH]n2c(C)c1CCC(=O)N[C@H](CO)C(C)C the remaining compound was 42.4%.
With Cc1n[nH]c(NC(=O)CCc2ncc(C(C)(C)C)o2)c1Cl the remaining compound was 9.96%.
For Cn1nc2n(c1=O)CCN(C(=O)CCn1cnnn1)CC2, the remaining compound was > 99%.
COc1cc(OC)c2nc(N3C[C@@H](NC(C)=O)[C@H](C(C)C)C3)cc(C)c2c1 gave a remaining compound of 84.8%.
For CN(CC1COc2ccccc2O1)C(=O)C1CCC(=O)NC1 (centres unmarked), the remaining compound was 80.1%.
The remaining compound of COC(=O)CC(c1cc2ccccc2[nH]c1=O)c1c(Cc2ccccc2)[nH][nH]c1=O (centres unmarked) is reported as 69.8%.
With CCCC(C)N(C)S(=O)(=O)c1ccc(NS(=O)(=O)CC)c(F)c1 (centres unmarked) the remaining compound was 8.08%.
CC(C)COc1cc(=O)n2c(c1C(=O)NC1CCCCC1)CCCCC2 gave a remaining compound of 4.6%.

Set 2 — method: phase 2a trial
SMILES: CC(C)n1cnc(-c2ccc(F)cc2)c1-c1ncc(C(=O)Nc2ccc(N3CCN(C)CC3)cc2)[nH]1
The “patients with TEAE” was 0% (patients with idiopathic pulmonary fibrosis; 30 mg once daily, nervous system disorders SOC, grade 3).
The “patients with TEAE” was 0% (patients with idiopathic pulmonary fibrosis; dose not given, renal and urinary disorders SOC, grade 5, all arms).
The “patients with TEAE” was 0% (patients with idiopathic pulmonary fibrosis; 60 mg once daily, free thyroxine decreased, grade 1).
It gave 0% for “patients with TEAE” (idiopathic pulmonary fibrosis patients; oral, 60 mg once daily, GLDH increased, grade 2).
It gave 0% for “patients with TEAE” (idiopathic pulmonary fibrosis patients; oral, 60 mg once daily, musculoskeletal disorders, grade 3).
The “patients with TEAE” was 0% (patients with idiopathic pulmonary fibrosis; dose not given, endocrine disorders SOC, grade 2, all arms).
patients with idiopathic pulmonary fibrosis; dose not given, renal and urinary disorders SOC, grade 3, all arms — “patients with TEAE”: 0%.
idiopathic pulmonary fibrosis patients; oral, 60 mg once daily, urine red cells, grade 1 — “patients with TEAE”: 1%.
It gave 0% for “patients with TEAE” (patients with idiopathic pulmonary fibrosis; 30 mg once daily, free thyroxine decreased, grade 4).
It gave 0% for “patients with TEAE” (idiopathic pulmonary fibrosis patients; oral, 30 mg once daily, CK-MB increased, grade 4).
The “patients with TEAE” was 0% (patients with idiopathic pulmonary fibrosis; 30 mg once daily, renal and urinary disorders SOC, grade 5).
For idiopathic pulmonary fibrosis patients; oral, 60 mg once daily, blood/lymphatic disorders, grade 2: “patients with TEAE” read 0%.

Set 3 — Compound: Cc1cc(Nc2nc(-c3ccccc3)nc3ccccc23)n[nH]1; effect on: enzyme activity; mode: inhibitor; concentration: 0.5 µM; relative to: control
For PRKG1 (Homo sapiens, UniProt Q13976): remaining activity read 97.3%.
The remaining activity was 82.6% (PRKCI (Homo sapiens, UniProt P41743)).
For LRRK2 (Homo sapiens, UniProt Q5S007): remaining activity read 88.3%.
For MAPK13 (Homo sapiens, UniProt O15264): remaining activity read 106%.
It gave 82.6% for remaining activity (WNK2 (Homo sapiens, UniProt Q9Y3S1)).
The remaining activity was 86.8% (MAPK12 (Homo sapiens, UniProt P53778)).
CSNK2A1 (Homo sapiens, UniProt P68400) — remaining activity: 27%.
It gave 75.4% for remaining activity (MAP3K10 (Homo sapiens, UniProt Q02779)).
For EPHA5 (Homo sapiens, UniProt P54756): remaining activity read 90.6%.
It gave 89.1% for remaining activity (Cyclin-dependent kinase 9, with cyclin T1 (CDK9, Homo sapiens, UniProt P50750)).
For IRAK4 (Homo sapiens, UniProt Q9NWZ3): remaining activity read 93.2%.
NEK4 (Homo sapiens, UniProt P51957) — remaining activity: 95%.
For CHEK1 (Homo sapiens, UniProt O14757): remaining activity read 69.1%.
For PRKCD (Homo sapiens, UniProt Q05655): remaining activity read 91.3%.
MAP4K2 (Homo sapiens, UniProt Q12851) — remaining activity: 45.3%.
For LYN (Homo sapiens, UniProt P07948): remaining activity read 79.9%.
For BTK (Homo sapiens, UniProt Q06187): remaining activity read 43.4%.
The remaining activity was 110% (PLK2 (Homo sapiens, UniProt Q9NYY3)).
For MKNK2 (Homo sapiens, UniProt Q9HBH9): remaining activity read 71.8%.
CSNK1A1 (Homo sapiens, UniProt P48729) — remaining activity: 94.6%.
For AKT3 (Homo sapiens, UniProt Q9Y243): remaining activity read 95.5%.
KIT (Homo sapiens, UniProt P10721) — remaining activity: 40.8%.
MAP2K6 (Homo sapiens, UniProt P52564) — remaining activity: 93.2%.

Set 4 — SMILES: FC(F)(F)c1ccc2c(c1)nc(-c1cccnc1)n2C1CC1; effect on: cell-free assay; method: competition with immobilised ligand; concentration: 1 µM
For MET (Homo sapiens, UniProt P08581): remaining binding read 100%.
For CIT (Homo sapiens, UniProt O14578): remaining binding read 100%.
It gave 97% for remaining binding (Tyrosine-protein kinase ABL1, non-phosphorylated (ABL1, Homo sapiens, UniProt P00519)).
YES1 (Homo sapiens, UniProt P07947) — remaining binding: 100%.
Tyrosine-protein kinase ABL1, phosphorylated (ABL1, Homo sapiens, UniProt P00519, Q252H) — remaining binding: 100%.
The remaining binding was 89% (Ribosomal protein S6 kinase alpha-3, N-terminal kinase domain (RPS6KA3, Homo sapiens, UniProt P51812)).
STK38 (Homo sapiens, UniProt Q15208) — remaining binding: 93%.
SBK3 (Homo sapiens, UniProt P0C264) — remaining binding: 76%.
For MAP2K2 (Homo sapiens, UniProt P36507): remaining binding read 100%.
NLK (Homo sapiens, UniProt Q9UBE8) — remaining binding: 100%.
For Ribosomal protein S6 kinase alpha-4, C-terminal kinase domain (RPS6KA4, Homo sapiens, UniProt O75676): remaining binding read 100%.
It gave 100% for remaining binding (PIK3C2B (Homo sapiens, UniProt O00750)).
MAP4K5 (Homo sapiens, UniProt Q9Y4K4) — remaining binding: 100%.
For Ribosomal protein S6 kinase alpha-2, C-terminal kinase domain (RPS6KA2, Homo sapiens, UniProt Q15349): remaining binding read 100%.
For FGFR2 (Homo sapiens, UniProt P21802): remaining binding read 100%.
The remaining binding was 78% (PIK3CA (Homo sapiens, UniProt P42336, H1047Y)).

Excerpt of the above (set 2):
The “patients with TEAE” was 0% (patients with idiopathic pulmonary fibrosis; 30 mg once daily, nervous system disorders SOC, grade 3).
It gave 0% for “patients with TEAE” (idiopathic pulmonary fibrosis patients; oral, 30 mg once daily, CK-MB increased, grade 4).
The “patients with TEAE” was 0% (patients with idiopathic pulmonary fibrosis; dose not given, renal and urinary disorders SOC, grade 5, all arms).
idiopathic pulmonary fibrosis patients; oral, 60 mg once daily, urine red cells, grade 1 — “patients with TEAE”: 1%.
The “patients with TEAE” was 0% (patients with idiopathic pulmonary fibrosis; dose not given, endocrine disorders SOC, grade 2, all arms).
The “patients with TEAE” was 0% (patients with idiopathic pulmonary fibrosis; 30 mg once daily, renal and urinary disorders SOC, grade 5).
patients with idiopathic pulmonary fibrosis; dose not given, renal and urinary disorders SOC, grade 3, all arms — “patients with TEAE”: 0%.
It gave 0% for “patients with TEAE” (idiopathic pulmonary fibrosis patients; oral, 60 mg once daily, musculoskeletal disorders, grade 3).
It gave 0% for “patients with TEAE” (patients with idiopathic pulmonary fibrosis; 30 mg once daily, free thyroxine decreased, grade 4).
The “patients with TEAE” was 0% (patients with idiopathic pulmonary fibrosis; 60 mg once daily, free thyroxine decreased, grade 1).
